{"data": "Results collected from several papers", "note": "Protocols differ between the studies behind these lines. “And” joins repeats or separate records; there may be more than shown. Numbers after ± are the reported error."}
{"SMILES": "Nc1nc2cc(C(=O)c3ccc(F)cc3)ccc2[nH]1", "tested on": "Salmonella typhimurium", "assay": "Ames preincubation test", "test system": "TA1537", "conditions": "9.8 µg per plate, 3 days, without S9", "measurement": "revertants", "value": "14 revertants per plate"}
{"SMILES": "CCCCCC(=O)N[C@@H](Cc1ccc(N)cc1)C(=O)N[C@@H](CCCC)C(=O)N[C@@H](CC(C)C)C(=O)[C@@]1(C)CO1", "tested on": "Trypanosoma brucei brucei", "test system": "HepG2 cells, Lister 427", "how to read": "baseline: HepG2 CC50 over T. brucei EC50", "measurement": "selectivity index", "value": "< 1"}
{"SMILES": "CC[n+]1cccc2cc(/C=N/NC(=O)N/N=C/c3ccc4c(ccc[n+]4CC)c3)ccc21", "tested on": "hp2 hairpin duplex DNA", "assay": "FRET melting", "conditions": "1 µM, added: ds26 10 µM", "measurement": "ΔTm", "value": "1.2 ± 0.4 °C"}
{"SMILES": "CCN(CC)CC#CCNc1ccnc2cc(Cl)ccc12", "tested on": "Salmonella typhimurium", "assay": "mini-Ames test", "test system": "TA102", "conditions": "250.0 µg/well, without S9", "measurement": "revertants", "value": "76 revertants/well and 71 revertants/well"}
{"SMILES": "COC(=O)Nc1nc2cc(C(O)c3ccc(F)cc3)ccc2[nH]1 (centres unmarked)", "tested on": "Salmonella typhimurium", "assay": "Ames preincubation test", "test system": "TA1537", "conditions": "875.0 µg per plate, 3 days, without S9, precipitation", "measurement": "revertants", "value": "15 revertants per plate"}
{"SMILES": "O=C1C2CC3CC1CC(C(=O)N1CCN(c4ccc([N+](=O)[O-])c5ncccc45)CC1)(C3)C2", "tested on": "Salmonella typhimurium", "assay": "Ames test", "test system": "TA1535", "conditions": "0.05 µg/well, without S9 activation", "measurement": "revertant colony count", "value": "1 colonies/well"}
{"SMILES": "CC(C)OCCOCc1ccc(OCC(O)CN(N=O)C(C)C)cc1 (centres unmarked)", "tested on": "Salmonella typhimurium", "assay": "Ames test", "test system": "TA98", "conditions": "500 µg/plate, 30 % hamster S9", "how to read": "baseline: solvent control", "measurement": "revertant fold increase", "value": "0.9 fold"}
{"SMILES": "CCCCCC(=O)N[C@@H](Cc1ccccc1)C(=O)N[C@@H](CCCC)C(=O)N[C@@H](CC(C)C)C(=O)[C@@]1(C)CO1", "tested on": "Trypanosoma brucei brucei", "test system": "HepG2 cells, Lister 427", "how to read": "baseline: HepG2 CC50 over T. brucei EC50", "measurement": "selectivity index", "value": "< 1"}
{"SMILES": "O=C1NC2(CC2)COc2ncc(F)cc2[C@H]2COCCN2c2ccn3ncc1c3n2", "tested on": "Salmonella typhimurium", "assay": "Ames test", "test system": "TA100", "conditions": "5000 µg/plate, 48 h, added: without S9", "measurement": "revertant colonies", "value": "65 ± 12 revertants/plate"}
{"SMILES": "CCCCCC(=O)N[C@@H](Cc1ccc(N)cc1)C(=O)N[C@@H](CCCC)C(=O)N[C@@H](Cc1ccccc1)C(=O)[C@@]1(C)CO1", "tested on": "Trypanosoma brucei brucei", "test system": "HepG2 cells, Lister 427", "how to read": "baseline: HepG2 CC50 over T. brucei EC50", "measurement": "selectivity index", "value": 6}
{"SMILES": "O=C(N/N=C/c1ccc(C[n+]2ccccc2)cc1)c1cccc(C(=O)N/N=C/c2ccc(C[n+]3ccccc3)cc2)c1", "tested on": "hp2 hairpin duplex DNA", "assay": "FRET melting", "conditions": "1 µM, added: ds26 10 µM", "measurement": "ΔTm", "value": "-0.2 ± 0.2 °C"}
{"note": "Some of these lines once more:"}
{"SMILES": "CCCCCC(=O)N[C@@H](Cc1ccc(N)cc1)C(=O)N[C@@H](CCCC)C(=O)N[C@@H](Cc1ccccc1)C(=O)[C@@]1(C)CO1", "tested on": "Trypanosoma brucei brucei", "test system": "HepG2 cells, Lister 427", "how to read": "baseline: HepG2 CC50 over T. brucei EC50", "measurement": "selectivity index", "value": 6}
